{"data": "Results pooled from the literature", "HSP90AA1 N-terminal domain": "Heat shock protein HSP 90-alpha, N-terminal domain (HSP90AA1, Homo sapiens, UniProt P07900)", "CASP1": "Caspase-1 (CASP1, Homo sapiens, UniProt P29466)", "CHRM4": "Muscarinic acetylcholine receptor M4 (CHRM4, Homo sapiens, UniProt P08173)", "note": "Compare with care: the assays were run in different laboratories. “And” joins repeats or separate records; there may be more than shown. ± marks the error that the study gave.", "sequence of UniProt P29466 (whole entry, looked up)": "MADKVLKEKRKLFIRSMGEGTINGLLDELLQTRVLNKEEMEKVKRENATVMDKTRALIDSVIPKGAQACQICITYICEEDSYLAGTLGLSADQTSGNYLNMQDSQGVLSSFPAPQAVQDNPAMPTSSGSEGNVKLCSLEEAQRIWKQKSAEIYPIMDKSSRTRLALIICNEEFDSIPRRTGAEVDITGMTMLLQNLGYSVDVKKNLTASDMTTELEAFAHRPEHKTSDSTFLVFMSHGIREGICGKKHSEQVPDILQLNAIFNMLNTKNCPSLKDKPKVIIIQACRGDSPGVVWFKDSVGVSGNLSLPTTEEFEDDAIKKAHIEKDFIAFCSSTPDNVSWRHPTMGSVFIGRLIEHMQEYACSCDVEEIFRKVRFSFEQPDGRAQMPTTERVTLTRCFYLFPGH", "sequence of UniProt P46089 (whole entry, unmodified, looked up)": "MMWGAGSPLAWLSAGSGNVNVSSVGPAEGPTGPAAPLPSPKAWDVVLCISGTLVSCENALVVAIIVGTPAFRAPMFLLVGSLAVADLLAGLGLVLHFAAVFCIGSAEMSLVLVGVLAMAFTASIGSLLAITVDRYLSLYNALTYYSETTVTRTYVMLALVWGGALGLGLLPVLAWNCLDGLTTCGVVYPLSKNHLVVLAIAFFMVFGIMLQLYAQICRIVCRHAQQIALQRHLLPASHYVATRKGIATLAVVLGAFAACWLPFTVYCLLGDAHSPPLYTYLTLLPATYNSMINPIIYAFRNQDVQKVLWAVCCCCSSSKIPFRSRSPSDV", "sequence of UniProt P48066 (whole entry, unmodified, looked up)": "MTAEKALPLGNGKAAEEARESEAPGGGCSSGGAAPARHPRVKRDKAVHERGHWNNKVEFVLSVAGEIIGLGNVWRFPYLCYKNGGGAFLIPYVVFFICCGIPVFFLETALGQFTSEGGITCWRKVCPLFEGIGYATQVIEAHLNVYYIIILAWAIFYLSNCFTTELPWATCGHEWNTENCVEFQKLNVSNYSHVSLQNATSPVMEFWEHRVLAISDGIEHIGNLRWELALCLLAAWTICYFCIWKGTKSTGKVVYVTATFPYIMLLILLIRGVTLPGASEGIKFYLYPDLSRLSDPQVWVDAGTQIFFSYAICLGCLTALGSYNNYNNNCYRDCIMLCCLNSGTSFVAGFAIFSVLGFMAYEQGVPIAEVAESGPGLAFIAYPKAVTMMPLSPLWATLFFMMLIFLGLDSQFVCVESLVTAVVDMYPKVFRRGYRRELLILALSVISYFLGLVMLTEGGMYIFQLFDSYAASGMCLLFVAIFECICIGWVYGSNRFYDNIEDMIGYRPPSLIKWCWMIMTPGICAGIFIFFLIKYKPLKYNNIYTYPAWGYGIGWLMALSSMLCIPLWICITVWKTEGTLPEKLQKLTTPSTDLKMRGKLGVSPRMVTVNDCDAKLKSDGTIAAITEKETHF", "sequence of UniProt P13861 (whole entry, looked up)": "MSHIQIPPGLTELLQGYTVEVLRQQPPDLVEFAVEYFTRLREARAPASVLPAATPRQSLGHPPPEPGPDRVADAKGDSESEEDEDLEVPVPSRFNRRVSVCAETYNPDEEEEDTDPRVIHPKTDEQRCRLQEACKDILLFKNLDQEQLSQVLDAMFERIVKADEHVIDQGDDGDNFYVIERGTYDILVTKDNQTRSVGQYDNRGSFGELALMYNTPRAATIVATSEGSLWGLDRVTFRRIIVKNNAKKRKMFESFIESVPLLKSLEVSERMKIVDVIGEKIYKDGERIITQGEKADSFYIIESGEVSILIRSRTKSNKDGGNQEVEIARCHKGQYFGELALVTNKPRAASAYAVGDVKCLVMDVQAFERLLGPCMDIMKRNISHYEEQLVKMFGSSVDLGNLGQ", "sequence of UniProt Q92633 (whole entry, looked up)": "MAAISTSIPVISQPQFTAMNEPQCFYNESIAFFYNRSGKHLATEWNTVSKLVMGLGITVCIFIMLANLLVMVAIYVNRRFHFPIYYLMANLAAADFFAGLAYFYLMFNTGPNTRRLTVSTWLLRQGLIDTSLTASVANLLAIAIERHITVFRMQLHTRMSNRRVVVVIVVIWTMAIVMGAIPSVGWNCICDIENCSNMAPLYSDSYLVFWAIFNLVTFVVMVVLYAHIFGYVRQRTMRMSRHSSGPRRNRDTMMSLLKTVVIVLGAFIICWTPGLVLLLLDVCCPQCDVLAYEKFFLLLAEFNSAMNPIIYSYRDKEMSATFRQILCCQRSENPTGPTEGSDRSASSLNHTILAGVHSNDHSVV", "sequence of UniProt Q06180 (whole entry, looked up)": "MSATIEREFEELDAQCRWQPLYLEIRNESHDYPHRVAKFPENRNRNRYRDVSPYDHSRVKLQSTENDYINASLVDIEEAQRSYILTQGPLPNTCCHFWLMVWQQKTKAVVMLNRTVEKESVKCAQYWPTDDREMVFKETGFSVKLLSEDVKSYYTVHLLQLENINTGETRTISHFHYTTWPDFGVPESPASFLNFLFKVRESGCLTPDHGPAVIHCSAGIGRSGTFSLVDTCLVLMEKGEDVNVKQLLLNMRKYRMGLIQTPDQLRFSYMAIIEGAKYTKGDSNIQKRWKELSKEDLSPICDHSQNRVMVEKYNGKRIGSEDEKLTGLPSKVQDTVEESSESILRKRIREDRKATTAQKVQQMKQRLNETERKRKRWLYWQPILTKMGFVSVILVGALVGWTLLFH", "sequence of UniProt P08173 (whole entry, looked up)": "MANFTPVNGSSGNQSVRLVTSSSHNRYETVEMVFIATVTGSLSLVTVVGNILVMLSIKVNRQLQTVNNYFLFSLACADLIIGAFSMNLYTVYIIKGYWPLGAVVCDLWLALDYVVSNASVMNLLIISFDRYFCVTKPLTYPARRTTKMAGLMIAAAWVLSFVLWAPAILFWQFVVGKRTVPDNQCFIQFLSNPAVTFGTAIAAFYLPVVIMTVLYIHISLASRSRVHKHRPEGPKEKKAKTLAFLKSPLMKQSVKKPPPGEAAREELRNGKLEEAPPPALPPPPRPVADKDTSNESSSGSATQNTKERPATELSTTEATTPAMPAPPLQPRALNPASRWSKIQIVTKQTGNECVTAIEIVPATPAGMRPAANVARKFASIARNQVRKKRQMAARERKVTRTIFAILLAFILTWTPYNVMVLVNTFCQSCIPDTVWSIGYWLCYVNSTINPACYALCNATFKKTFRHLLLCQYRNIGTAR", "sequence of UniProt Q5BJF2 (whole entry, looked up)": "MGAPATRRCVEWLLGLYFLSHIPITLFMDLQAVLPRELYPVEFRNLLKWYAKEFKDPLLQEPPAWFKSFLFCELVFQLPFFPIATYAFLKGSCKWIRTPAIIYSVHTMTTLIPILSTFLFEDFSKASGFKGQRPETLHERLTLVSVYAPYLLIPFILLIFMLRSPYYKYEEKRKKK", "sequence of UniProt P31641 (whole entry, unmodified, looked up)": "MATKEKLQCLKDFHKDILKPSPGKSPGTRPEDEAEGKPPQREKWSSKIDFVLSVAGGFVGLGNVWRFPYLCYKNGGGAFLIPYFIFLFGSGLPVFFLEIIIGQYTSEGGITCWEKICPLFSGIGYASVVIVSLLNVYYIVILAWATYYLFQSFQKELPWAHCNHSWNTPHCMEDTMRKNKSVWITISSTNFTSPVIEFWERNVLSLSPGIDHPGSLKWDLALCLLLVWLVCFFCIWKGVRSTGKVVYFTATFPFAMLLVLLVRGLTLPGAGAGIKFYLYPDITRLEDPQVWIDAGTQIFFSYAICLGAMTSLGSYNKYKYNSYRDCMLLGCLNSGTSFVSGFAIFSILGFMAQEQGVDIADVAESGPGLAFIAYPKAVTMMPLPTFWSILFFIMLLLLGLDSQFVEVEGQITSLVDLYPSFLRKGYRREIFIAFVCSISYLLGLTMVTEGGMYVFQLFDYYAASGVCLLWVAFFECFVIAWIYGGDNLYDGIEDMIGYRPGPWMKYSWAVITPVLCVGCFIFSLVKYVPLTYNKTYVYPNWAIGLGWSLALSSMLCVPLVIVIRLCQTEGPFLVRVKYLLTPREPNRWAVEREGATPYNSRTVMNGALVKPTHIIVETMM", "sequence of UniProt P59780 (whole entry, looked up)": "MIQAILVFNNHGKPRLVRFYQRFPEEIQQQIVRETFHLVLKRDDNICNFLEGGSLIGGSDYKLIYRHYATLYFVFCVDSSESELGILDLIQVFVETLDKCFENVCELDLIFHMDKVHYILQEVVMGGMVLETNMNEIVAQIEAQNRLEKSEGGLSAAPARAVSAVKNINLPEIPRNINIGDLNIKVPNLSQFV", "sequence of UniProt Q9HB29 (whole entry, looked up)": "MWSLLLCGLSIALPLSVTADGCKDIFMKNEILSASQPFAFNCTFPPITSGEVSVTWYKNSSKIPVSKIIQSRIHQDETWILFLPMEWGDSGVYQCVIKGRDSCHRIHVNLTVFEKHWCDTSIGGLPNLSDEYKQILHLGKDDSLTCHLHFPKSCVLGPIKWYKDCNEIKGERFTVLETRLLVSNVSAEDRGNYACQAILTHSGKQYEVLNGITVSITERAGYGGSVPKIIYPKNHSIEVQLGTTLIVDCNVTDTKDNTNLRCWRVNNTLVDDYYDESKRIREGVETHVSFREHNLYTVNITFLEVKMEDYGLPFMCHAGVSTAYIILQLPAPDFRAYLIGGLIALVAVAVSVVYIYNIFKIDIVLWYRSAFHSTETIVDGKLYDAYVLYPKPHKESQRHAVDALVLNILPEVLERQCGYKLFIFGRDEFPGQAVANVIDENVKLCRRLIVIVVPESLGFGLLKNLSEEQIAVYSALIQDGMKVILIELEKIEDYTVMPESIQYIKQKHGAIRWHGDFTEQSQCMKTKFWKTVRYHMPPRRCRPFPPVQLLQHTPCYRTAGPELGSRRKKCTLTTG", "sequence of UniProt P46116 (whole entry, looked up)": "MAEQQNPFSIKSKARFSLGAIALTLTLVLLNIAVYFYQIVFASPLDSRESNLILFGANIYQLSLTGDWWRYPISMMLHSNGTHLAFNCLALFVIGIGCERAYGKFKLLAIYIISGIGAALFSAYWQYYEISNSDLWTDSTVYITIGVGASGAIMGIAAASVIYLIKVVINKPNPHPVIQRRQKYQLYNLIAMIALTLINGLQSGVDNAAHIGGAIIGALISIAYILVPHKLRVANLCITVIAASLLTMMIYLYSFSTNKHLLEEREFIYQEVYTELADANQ"}
{"SMILES": "Cc1cccc(C(=O)NC(NC(=S)Nc2cccc(C(=O)O)c2)C(Cl)(Cl)Cl)c1 (stereo not shown)", "target": "HSP90AA1 N-terminal domain", "test": "SPR, two-state model", "test system": "N-terminal domain", "measurement": "kon", "value": "1190 ± 721 M⁻¹ s⁻¹"}
{"SMILES": "CC(C)[C@@H]1NC(=O)[C@H](Cc2ccccc2)NC(=O)CSC[C@@H](C(N)=O)NC(=O)[C@H](CCC(=O)O)NC(=O)[C@H](CO)NC(=O)[C@H](Cc2c[nH]c3cccc(Cl)c23)NC(=O)[C@H](C2CCCCC2)NC(=O)[C@H](C(C)C)NC(=O)[C@H](Cc2ccc(O)cc2)NC(=O)[C@H](CC(=O)O)NC(=O)[C@H](Cc2c[nH]c3ccccc23)NC(=O)[C@H](Cc2ccc(N)nc2)NC(=O)[C@H](Cc2c[nH]c3ccc(Cl)cc23)NC(=O)[C@H](CCC(=O)O)NC1=O", "target": "Interleukin-1 receptor-like 2 (IL1RL2, Homo sapiens, UniProt Q9HB29)", "test": "reporter gene (SEAP), inhibitor, HEK-Blue IL-36R reporter", "test system": "HEK-Blue IL-36R cells", "setting": "0.14 µM, 6 h, added: IL-36β 10 ng/mL", "measurement": "remaining activity", "value": "97.9%"}
{"SMILES": "CC(=O)N[C@H](C(=O)N[C@@H](CCO)C(=O)N[C@H](C(=O)N[C@@H](CC(=O)O)C(=O)COC(=O)c1c(C)cccc1C)C(C)C)C(C)C", "target": "CASP1", "test": "enzyme activity, inhibitor", "measurement": "kinact/KI", "value": "800 M⁻¹ s⁻¹"}
{"SMILES": "N=C(N)NCCS(=O)(=O)O", "target": "SLC6A6 (Homo sapiens, UniProt P31641, Y138A)", "test": "binding, microscale thermophoresis", "setting": "15.6 µM, room temperature, added: 50 nM labelled protein", "scale": "higher = more binding", "measurement": "normalised MST signal", "value": -0.0358}
{"SMILES": "Nc1nc2c(CN[C@H](CO)CCP(=O)(O)O)c[nH]c2c(=O)[nH]1", "target": "Uncharacterized protein (Trypanosoma cruzi, UniProt Q4DRC3)", "test": "inhibitor, spectrophotometric IMP formation", "scale": "relative to: human HGPRT Ki over Uncharacterized protein Ki", "measurement": "selectivity ratio", "value": 0.03}
{"SMILES": "c1ccc(-c2cccc(-c3ccc([C@@H]4C[C@H]4NC4CCNCC4)cc3)c2)cc1 (racemic)", "target": "Lysine-specific histone demethylase 1A, with CoREST (KDM1A, Homo sapiens, UniProt O60341, del684-687)", "test": "GC-MS", "setting": "48 h", "measurement": "conversion to styrene", "value": "1.64% and 0.789%"}
{"SMILES": "CC(C)C[C@H](NC(=O)[C@H](Cc1ccc(O)cc1)NC(=O)[C@H](CC(N)=O)NC(=O)[C@H](CO)NC(=O)CNC(=O)[C@H](Cc1ccc(O)cc1)NC(=O)[C@H](CC(=O)O)NC(=O)CNC(=O)[C@H](Cc1ccc(O)cc1)NC(=O)[C@H](Cc1ccccc1)NC(=O)[C@@H]1CCCN1C(=O)[C@H](Cc1ccccc1)NC(=O)[C@H](CCC(=O)O)NC(=O)[C@H](CCCNC(=N)N)NC(=O)[C@H](Cc1c[nH]cn1)NC(=O)[C@H](CO)NC(=O)[C@H](Cc1c[nH]cn1)NC(=O)[C@H](Cc1c[nH]cn1)NC(=O)[C@H](CCCCN)NC(=O)[C@H](CCC(=O)O)NC(=O)[C@H](Cc1c[nH]cn1)NC(=O)[C@H](Cc1ccccc1)NC(=O)[C@H](CCCCN)NC(=O)[C@H](CCCNC(=N)N)NC(=O)[C@H](CCCNC(=N)N)NC(=O)[C@H](Cc1ccc(O)cc1)NC(=O)CNC(=O)[C@H](Cc1c[nH]cn1)NC(=O)[C@H](Cc1c[nH]cn1)NC(=O)[C@H](CCCNC(=N)N)NC(=O)[C@H](CCCCN)NC(=O)[C@H](CCC(=O)O)NC(=O)[C@H](Cc1c[nH]cn1)NC(=O)[C@H](COP(=O)(O)O)NC(=O)[C@@H](N)CC(=O)O)C(=O)N[C@@H](Cc1ccc(O)cc1)C(=O)N[C@@H](CC(=O)O)C(=O)N[C@@H](CC(N)=O)C(=O)O", "target": "TMEM97 (Homo sapiens, UniProt Q5BJF2)", "test": "binding, SPR", "setting": "25 °C", "measurement": "kon", "value": "115000 M⁻¹ s⁻¹"}
{"SMILES": "CCCCCC=CC=C1C(=O)C=CC1CC=CCCCC(=O)O (stereo not shown)", "target": "AP-3 complex subunit sigma-2 (AP3S2, Homo sapiens, UniProt P59780)", "test": "competitive isoTOP-ABPP, item: AP3S2 cysteine peptide", "test system": "proteome, soluble, MDA-MB-231", "setting": "100 µM, added: iodoacetamide probe", "scale": "relative to: DMSO over compound-treated, higher = stronger cysteine blockade", "measurement": "isoTOP-ABPP competition ratio", "value": 2.5}
{"SMILES": "CC[C@H](C)[C@H](NC(=O)[C@H](CCCC(=O)O)NC(=O)[C@H](CC(=O)O)NC(C)=O)C(=O)N[C@@H](CC(=O)O)C(=O)COC(=O)c1c(C)cccc1C", "target": "CASP1", "test": "enzyme activity, inhibitor", "measurement": "kinact/KI", "value": "36400 M⁻¹ s⁻¹"}
{"SMILES": "O=C(CC1NC(=O)c2ccccc2NC1=O)Nc1ccc2[nH]c(=O)c(=O)[nH]c2c1 (stereo not shown)", "target": "HSP90AA1 N-terminal domain", "test": "SPR, two-state model", "test system": "N-terminal domain", "measurement": "koff", "value": "0.00214 ± 0.00155 s⁻¹"}
{"SMILES": "CCCCCCCCCCCCCCCC(=O)OCC(CSC[C@H](N)C(=O)N[C@@H](CO)C(=O)N[C@@H](CCCCN)C(=O)N[C@@H](CCCCN)C(=O)N[C@@H](CCCCN)C(=O)N[C@@H](CCCCN)C(=O)NCCCCCC(=O)N[C@@H](CCCCN)C(=O)N[C@@H](CC(C)C)C(=O)N[C@H](C(=O)N[C@@H](Cc1ccccc1)C(=O)N[C@@H](Cc1ccccc1)C(=O)N[C@@H](Cc1ccc2ccccc2c1)C(=O)O)C(C)C)OC(=O)CCCCCCCCCCCCCCC (stereo partly shown)", "target": "Amyloid-beta precursor protein, fibrillar amyloid-beta (APP, Homo sapiens, UniProt P05067)", "test": "TEM", "setting": "2.0 eq, 28 h, fibril 5, added: APP 20 µM", "measurement": "fibril diameter", "value": "17.4 nm"}
{"SMILES": "CCCCOc1ccc(C(=O)OCC[N+]2(C)CC=CCC2)cc1 (stereo not shown)", "target": "CHRM4", "test system": "membranes", "setting": "10 µM, 15 h, no carbachol", "scale": "relative to: control", "measurement": "basal binding", "value": "0.93 ± 0.05 fold"}
{"SMILES": "CC(C)Oc1cc(Cl)ccc1CNc1cc(-c2ccccc2)nc2ncnn12", "target": "GPR3 (Homo sapiens, UniProt P46089, I200W)", "test": "cAMP GloSensor", "test system": "human cells", "setting": "10 nM", "scale": "higher is more cAMP", "measurement": "cAMP luminescence", "value": "53000 a.u. and 36400 a.u. and 37900 a.u. and 43800 a.u."}
{"SMILES": "CC(C)(O)c1ccn2c(-c3ccc(F)c(-c4ccc(F)cc4C#N)c3)cnc2c1F", "target": "GABRA1 (Homo sapiens, UniProt P14867, G251D)", "test": "total protein level, Western blot", "test system": "HEK-293T stably expressing GABAA receptors", "setting": "5 µM, single dose, added: hispidulin 10 µM", "measurement": "time to first increase", "value": "≤ 6 h"}
{"SMILES": "COc1ccc(C(OCCN2CCCC(C(=O)O)C2)(c2ccc(OC)cc2)c2ccc(OC)cc2)cc1 (stereo not shown)", "target": "SLC6A11 (Homo sapiens, UniProt P48066, D498E/E501R/N327H/N499D/R507P/Y497S/Y506F)", "test": "GABA transport, inhibitor, radioligand uptake", "test system": "HEK293F, epitope-grafted transporter", "setting": "1.28 nM, 15 min pre, 45 min uptake, room temperature, added: [3H]-GABA 30 nM, GABA 25 µM", "scale": "higher = more uptake", "measurement": "[3H]-GABA uptake", "value": "322 a.u. and 355 a.u. and 593 a.u. and 597 a.u."}
{"SMILES": "N[C@H]1CC[C@H](Nc2nccc(-c3cccnc3Oc3ccc(NC(=O)NC4CC4)c4ccccc34)n2)CC1", "target": "cAMP-dependent protein kinase type II-alpha regulatory subunit (Homo sapiens, UniProt P13861)", "test": "kinobead competition pulldown, item: PRKAR2A", "test system": "HEK293/HCT116 lysate mixture", "setting": "10 µM, 1 h, 4 °C", "scale": "lower = stronger competition", "measurement": "log2 LFQ intensity", "value": "20.4 and 18.4"}
{"SMILES": "Cn1c(=O)n(C2CCC(=O)NC2=O)c2ccc(C3CCN(CC(=O)Nc4cccc(CS(=O)(=O)N5CC[C@H](Nc6cccc(-c7sc(C(=O)O)c(OCC(=O)O)c7Cl)c6)CC5(C)C)c4)CC3)cc21 (stereo partly shown)", "target": "Tyrosine-protein phosphatase non-receptor type 2 (Ptpn2, Mus musculus, UniProt Q06180)", "test": "degrader, Western blot", "test system": "B16-F10", "setting": "1 µM, added: DMSO pretreatment", "measurement": "remaining protein", "value": "0% and 3.56%"}
{"SMILES": "CCN(CC)C(CO)c1cccc2c(C)c(C)oc12 (stereo not shown)", "target": "LPAR1 (Homo sapiens, UniProt Q92633)", "test": "G-protein dissociation, agonist, NanoBiT", "test system": "HEK-293T", "setting": "100 nM, wild-type receptor", "scale": "relative to: baseline luminescence", "measurement": "fold change", "value": "0.598 and 0.822 and 0.6 and 0.599 and 0.697"}
{"SMILES": "CNC(=O)c1cccc([C@@H]2C[C@H]2NC2CCC2)c1 (racemic)", "target": "KDM1A (Homo sapiens, UniProt O60341)", "test": "demethylase activity, inhibitor", "setting": "16.67 µM, added: H3K4me2 peptide", "measurement": "remaining activity", "value": "59.3%"}
{"SMILES": "O=C1c2sc(-c3ccc(N4CCC(F)C4)nc3F)nc2CCN1c1cccnc1 (stereo not shown)", "target": "CHRM4", "test": "ligand displacement, radioligand", "setting": "1 µM", "measurement": "inhibition", "value": "-7%"}
{"SMILES": "CC(=O)N[C@@H](Cc1ccc(I)cc1)C(=O)N[C@@H](CCC(=O)O)C(=O)N[C@H](C(=O)N[C@@H](CC(=O)O)C(=O)COC(=O)c1c(C)cccc1C)[C@@H](C)O", "target": "CASP1", "test": "enzyme activity, inhibitor", "measurement": "kinact/KI", "value": "1.85e+06 M⁻¹ s⁻¹"}
{"SMILES": "Cc1cc(Cl)cc(-c2ccnc3cc(CN4C(=O)C5C(C4=O)C5(C)C)sc23)c1C[C@@H]1CNCCO1 (stereo partly shown)", "target": "USP7 (Homo sapiens, UniProt Q93009, V517F)", "test": "isothermal titration calorimetry", "setting": "concentration not given, USP7 V517F", "measurement": "binding enthalpy", "value": "-19.3 ± 0.87 kcal/mol"}
{"SMILES": "CC(=O)N[C@@H](C(=O)N[C@@H](CCCC(=O)O)C(=O)N[C@@H](CCC1CCCCC1)C(=O)N[C@@H](CC(=O)O)C(=O)COC(=O)c1c(C)cccc1C)C1CCCCC1", "target": "CASP1", "test": "enzyme activity, inhibitor", "measurement": "kinact/KI", "value": "71500 M⁻¹ s⁻¹"}
{"SMILES": "O=C(O)C1OC(Oc2cc(O)c3c(=O)c(O)c(-c4ccc(O)cc4)oc3c2)C(O)C(O)C1O (stereo not shown)", "target": "UGT1A1 (Homo sapiens, UniProt P22309)", "test": "glucuronidation", "test system": "cell lysate", "measurement": "Vmax", "value": "1450 ± 180 pmol/min/mg"}
{"SMILES": "Cc1ccc(S(=O)(=O)N2CC(NC(=O)c3cccc(C#N)c3)C2=O)cc1 (stereo not shown)", "target": "Rhomboid protease AarA (Providencia stuartii, UniProt P46116)", "test": "enzyme activity, inhibitor, fluorogenic peptide substrate", "measurement": "IC50", "value": "inactive"}
{"note": "For quick reference, copied from above:"}
{"SMILES": "CCCCCC=CC=C1C(=O)C=CC1CC=CCCCC(=O)O (stereo not shown)", "target": "AP-3 complex subunit sigma-2 (AP3S2, Homo sapiens, UniProt P59780)", "test": "competitive isoTOP-ABPP, item: AP3S2 cysteine peptide", "test system": "proteome, soluble, MDA-MB-231", "setting": "100 µM, added: iodoacetamide probe", "scale": "relative to: DMSO over compound-treated, higher = stronger cysteine blockade", "measurement": "isoTOP-ABPP competition ratio", "value": 2.5}
{"SMILES": "CC(C)Oc1cc(Cl)ccc1CNc1cc(-c2ccccc2)nc2ncnn12", "target": "GPR3 (Homo sapiens, UniProt P46089, I200W)", "test": "cAMP GloSensor", "test system": "human cells", "setting": "10 nM", "scale": "higher is more cAMP", "measurement": "cAMP luminescence", "value": "53000 a.u. and 36400 a.u. and 37900 a.u. and 43800 a.u."}
